Results collected from several papers.
Compare with care: the assays were run in different laboratories. Values joined by “and” are separate records of one study, mostly repeats; a detail may differ. ± gives the spread as reported.

| Structure (SMILES) | cell line | assay | setting | scale | endpoint | value |
| --- | --- | --- | --- | --- | --- | --- |
| COc1cc2ccnc(Cc3cccc(-c4ccccc4)c3)c2cc1OC | A549 | mitochondrial oxygen consumption, Seahorse XF96 | 10 µM |  | inhibition | 17% |
| COc1cc(N2CCC(N3CCN(C)CC3)CC2)ccc1Nc1ncc(Cl)c(Nc2ccccc2P(C)(C)=O)n1 | Ba/F3 EML4-ALK variant 1 E1210K | cell viability |  |  | IC50 | 191 nM |
| COc1cccc2c1C(=O)c1c(O)c3c(c(O)c1C2=O)C[C@@](O)(C(=O)CO)C[C@@H]3O[C@H]1C[C@H](N)[C@H](O)[C@H](C)O1 | MDA-MB-231 and Vero | MTT |  | relative to: CC50 Vero over EC50 MDA-MB-231 | selectivity index | 0.9 |
| Cc1nc(NC(=O)N2CCC[C@H]2C(N)=O)sc1-c1ccnc(C(C)(C)C(F)(F)F)c1 | MCF7/luciferase, wild type | cell proliferation |  |  | maximum inhibition | 94.8% |
| Cc1cccc(-c2[nH]c(CNc3ccccc3F)nc2-c2ccc3ncnn3c2)n1 | bone marrow CD138+ myeloma cells | XTT | 3 µM, mean of three patients |  | viability | 6% |
| C=CC(=O)N1CCC[C@@H](c2ccc(C(N)=O)c3[nH]ccc23)C1 | Ramos | calcium flux, FLIPR | 4 h preincubation |  | maximum inhibition | 33.6% |
| CC(C)(C)c1cnc(CSc2cnc(NC(=O)C3CCN(C(=O)CCCCCCCN4Cc5cc6c(cc5C4)C(=O)N(C4CCC(=O)NC4=O)C6=O)CC3)s2)o1 (centres unmarked) | TC-71 | RNA-seq | 10 nM, 8 h |  | number of downregulated genes | > 2600 genes |
| O=C(O)c1ccc(Nc2ncc3c(n2)-c2ccc(Cl)cc2C(c2c(F)cccc2F)=NC3)cc1 | iCell Cardiomyocytes (hiPSC-derived) | xCELLigence Cardio impedance | concentration not given, 2 h | relative to: control | beat rate | 102% |
| O=c1[nH]nc(OCCCc2ccc(Cl)cc2)c(NCc2cccnc2)c1Br | HEK-293T | RNA-seq GSEA, refers to: HALLMARK_MITOTIC_SPINDLE | concentration not given | direction not given | normalized enrichment score | 0.768 |
| CCn1cc(-c2cc(Cn3ccoc3=N)cc3c2CCN([C@@H](C)c2cc(OC)ccn2)C3=O)c(C(F)(F)F)n1 | DB | cell growth | 120 h |  | EC50 | 31.9 nM |
| Cc1cc(Nc2ncc(Cl)c(Nc3ccccc3S(=O)(=O)C(C)C)n2)c(OC(C)C)cc1C1CCNCC1 | CLB-GE | phosphoproteomics LC-MS/MS, refers to: ARHGAP39 phosphorylation | 200 nM, 60 min | relative to: untreated | log2 fold change | -1.73 |
| O=C1N(Cc2ccccc2Cl)c2ccccc2C12NN=C(c1ccccc1)S2 (centres unmarked) | TNBC cells | MTT | 10 µM, 24 h |  | viability loss | 70 to 90% |
| CC#CC(=O)N1CCC[C@H]1c1nc(-c2ccc(C(=O)Nc3ccccn3)cc2)c2c(N)nccn12 | Ramos | calcium flux, FLIPR |  |  | maximal inhibition | ≤ 90% |
| CC(C)NCC(O)c1ccc(O)c(O)c1 (centres unmarked) | mouse ventricular cardiomyocytes |  | dose not given, 0.171 s |  | sarcomere length | 1.61 µm |
| Cc1nc(N(Cc2ccccc2)c2ccc3c(c2)/C(=C/c2ccccc2)C(=O)N3Cc2ccccc2)c2ccccc2n1 (mixture of isomers) | A549 |  | 0.3 µM, 24 h | relative to: untreated | reduction of wound healing rate | 20.2% |
| COC(=O)c1cc(C(C)=NNc2nc(-c3ccc4c(c3)OCCCO4)cs2)ccc1O | T47D | flow cytometry | 20 µM, 72 h |  | cells in G1 phase | 31.7 ± 2.57% |
| C=CC(=O)N1CCC([C@@H]2CCNc3c(C(N)=O)c(-c4ccc(Oc5ccccc5)cc4)nn32)CC1 | TMD8 RAC2 knockout | calcium flux, FLIPR | 1 h preincubation |  | IC50 | 6.6 nM |
| COc1cc2c(cc1O)[C@@H](Cc1ccc(O)c(Oc3cc4c(cc3OC)CCN(C)[C@@H]4Cc3ccc(O)cc3)c1)N(C)CC2 | 3T3-L1 | adipocyte lipid accumulation, Nile Red staining | 10 µM |  | inhibition | 28.3 ± 0.8% |
| Cc1[nH]c(/C=C2\C(=O)Nc3ccc(F)cc32)c(C)c1C(=O)NC[C@H](O)CN1CCOCC1 | iCell Cardiomyocytes (hiPSC-derived) | xCELLigence Cardio impedance | concentration not given, 2 h | relative to: control | beat amplitude | 107% |
| CCCCN1CCN(c2ccc3nc(-c4ccc5nc(-c6cc(OC)ccc6OC)[nH]c5c4)[nH]c3c2)CC1 | KM12 | SRB | 10 µM, 48 h |  | growth percent | 107% |
| Nc1ncnc2c1ncn2[C@@H]1O[C@H](CO)[C@@H](O)[C@H]1O | activated human T cells |  | 50 µM, unit not given | relative to: DMSO | orotate level | 9.6 and 8.5 and 12 and 8 and 9.5 |
| OC1CCN(c2ccc(/C=N/NC(=S)Nc3ccc(Cl)cc3)cc2)CC1 | BEAS-2B and A549 | MTT |  | relative to: IC50 BEAS-2B over IC50 A549 | selectivity ratio | 4.7 |

| Structure (SMILES) | cell line | assay | setting | scale | endpoint | value |
| --- | --- | --- | --- | --- | --- | --- |
| CCCCN1CCN(c2ccc3[nH]c(-c4ccc5[nH]c(-c6ccc(OCC)c(OCC)c6)nc5c4)nc3c2)CC1 | NCI/ADR-RES | cell growth, NCI-60 SRB | 10 µM, 48 h |  | growth percent | 73% |
| Cn1cc(-n2cnc3c(NCc4nc5cc(Cl)c(Cl)cc5[nH]4)nc(N4CCOCC4)nc32)cn1 | MDA-MB-231 | qRT-PCR, refers to: BRCA1 | 0.05 µM, 6 h, unit not given | relative to: DMSO | mRNA level | 0.374 and 0.255 and 0.337 |
| CSc1cc(Oc2ccnc3[nH]c(=O)cnc23)ccc1NC(=O)Nc1cc(C(C)(C)C)nn1-c1ccccc1 | patient-derived cell lines | reverse phase protein array | 1 µM, 4 h, mean of three patients | relative to: DMSO | phospho-Ser73 c-Jun to total ratio | 0.79 |
| Cn1cc(-c2ccc3nnc(Sc4ccc5ncccc5c4)n3n2)cn1 | iCell Cardiomyocytes (hiPSC-derived) | CellTiter-Glo | concentration not given, 24 h | relative to: control | ATP level | 100% |
| Cn1cc(-c2ccc(-c3cncc(Cl)c3N3CCC4(CCNC4=O)CC3)cc2)cn1 | COLO 205 | gene expression, microarray, refers to: SCUBE1 mRNA | concentration not given, 2 h | relative to: untreated cells | log2 fold change | -4.25 |
| Fc1ccc(CNc2ccc3nc(COCc4ccccc4)[nH]c3c2)cc1 | sample A patient iPSC NPCs | cell protection, MTS | up to 100 µM, 24 h |  | Emax | 26% |
| CCn1cc(-c2cc(Cn3ccnc3)cc3c2CCN([C@H](c2cc(OC)ccn2)C2CC2)C3=O)c(C(F)(F)F)n1 | CAKI-2 | cell growth, inhibitor | 120 h |  | EC50 | 19800 nM |
| CO[C@@H]1[C@H](N(C)C(=O)c2ccccc2)C[C@H]2O[C@]1(C)n1c3ccccc3c3c4c(c5c6ccccc6n2c5c31)C(=O)NC4 | iCell Cardiomyocytes (hiPSC-derived) | xCELLigence Cardio impedance | concentration not given, 2 h | relative to: control | beat rate | 166% |
| O=C(/C=C/C=C/C=C/C1CCCCC1)NC1=C[C@@](O)(/C=C/C=C/C=C/C(=O)NC2=C(O)CCC2=O)[C@@H]2O[C@@H]2C1=O | tccpan2 | cell growth, inhibitor, CellTiter-Glo luminescence | 78 h | relative to: day 0 cell count | GI50 | 18700 nM |
| CN1CCN(c2ccc3nc(-c4c(N)c5c(F)cccc5[nH]c4=O)[nH]c3c2)CC1 | iCell Cardiomyocytes (hiPSC-derived) | CellTiter-Glo | concentration not given, 24 h | relative to: control | ATP level | 92.3% |
| C[C@H]1[C@@H](O)O[C@@H]2O[C@@]3(C)CC[C@H]4[C@H](C)CC[C@@H]1[C@@]24OO3 | THP-1 | annexin V/PI flow cytometry, refers to: annexin V-/PI+ | 1.6 µM, 24 h |  | necrotic cells | 0.1% |
| COc1ccc2c(N(C)c3ccc(/C(C)=N/OCCN)cc3)c3c(Cl)coc3nc2c1 | LNCaP C-81 | DCF-DA flow cytometry | concentration not given, 72 h, steroid-reduced medium |  | increase in total ROS | ~60% |
| CCn1c(-c2nonc2N)nc2cncc(CNC3CCNCC3)c21 | SK-OV-3 | ATP | 10 µM, 4 days, 3D gellan gum culture | relative to: untreated | relative cell number | 41.2% |
| C=CC1=C(C)c2cc3[n-]c(cc4nc(cc5[n-]c(cc1n2)c(C)c5C=C)C(C)=C4CCC(=O)O)c(CCC(=O)O)c3C.[Zn+2] | SH-SY5Y | RNA-seq, refers to: SIRPG-AS1 | 5 µM, 5 h | relative to: untreated | log2 fold change | 9.97 |
| c1ccc2[nH]ccc2c1 | HCT-8 | RNA-seq, refers to: GDF15 | concentration not given |  | mRNA level, LS mean | 517 counts per million |
| C[C@]12CCCN1CC1=NNC(=O)c3cc(F)cc4[nH]c2c1c34 | Hs746T |  | added: temozolomide |  | EC50 | > 10000 nM |
| Cc1nc(Nc2ncc(C(=O)Nc3c(C)cccc3Cl)s2)cc(N2CCN(CCO)CC2)n1 | iCell Cardiomyocytes (hiPSC-derived) | CellTiter-Glo | concentration not given, 24 h | relative to: control | ATP level | 94.8% |
| Clc1nc(NCc2ccco2)c2[nH]cnc2n1 | FD iPSC-derived cardiomyocytes | alternative splicing, RNA-seq, refers to: DPH3 exon chr3:16264154-16264229 | unit not given | relative to: DMSO minus compound | ΔPSI | 0.204 |
| CC(C)C[C@@H](C=O)NC(=O)[C@H](CC(C)C)NC(=O)[C@H](CC(C)C)NC(=O)OCc1ccccc1 | HEK293 | refers to: CD4 signal peptide-FLuc reporter | concentration not given, 6 h, time-course chase, unit not given, added: cycloheximide | relative to: untreated | FLuc activity | 1.45 |
| C[C@@H]1CN(C(=O)c2ccc(NC(=O)c3cc(O[C@H](C)c4c(Cl)ccc(F)c4Cl)c(N)nn3)cc2)C[C@H](C)N1 | Ba/F3 EML4-ALK variant 1 E1210K | cell viability |  |  | Emax | 99.8% |
| Cn1cc(-c2ccc(F)c(C(F)(F)F)c2)nc1C1CCN(c2ncnc3[nH]ncc23)CC1 | SK-OV-3 | ATP | 0.01 µM, 4 days, 3D U-bottom low-attachment | relative to: untreated | relative cell number | 109% |
| COc1cnc2cccc(N3CCc4c(cc(Cn5ccnc5C)cc4-c4cn(C)nc4C(F)(F)F)C3=O)c2c1 | OVTOKO | cell growth, inhibitor | 120 h |  | EC50 | 876 nM |

For quick reference, copied from above:
| Structure (SMILES) | cell line | assay | setting | scale | endpoint | value |
| --- | --- | --- | --- | --- | --- | --- |
| C[C@@H]1CN(C(=O)c2ccc(NC(=O)c3cc(O[C@H](C)c4c(Cl)ccc(F)c4Cl)c(N)nn3)cc2)C[C@H](C)N1 | Ba/F3 EML4-ALK variant 1 E1210K | cell viability |  |  | Emax | 99.8% |
| Cn1cc(-c2ccc(F)c(C(F)(F)F)c2)nc1C1CCN(c2ncnc3[nH]ncc23)CC1 | SK-OV-3 | ATP | 0.01 µM, 4 days, 3D U-bottom low-attachment | relative to: untreated | relative cell number | 109% |
| COc1cnc2cccc(N3CCc4c(cc(Cn5ccnc5C)cc4-c4cn(C)nc4C(F)(F)F)C3=O)c2c1 | OVTOKO | cell growth, inhibitor | 120 h |  | EC50 | 876 nM |
